Experimental data of several laboratories.
Compare with care: the assays were run in different laboratories.
PIK3CA: Phosphatidylinositol 4,5-bisphosphate 3-kinase catalytic subunit alpha isoform (PIK3CA, Homo sapiens, UniProt P42336)
PIK3CA Q546K: Phosphatidylinositol 4,5-bisphosphate 3-kinase catalytic subunit alpha isoform (PIK3CA, Homo sapiens, UniProt P42336, Q546K)
PIK3CA E542K: Phosphatidylinositol 4,5-bisphosphate 3-kinase catalytic subunit alpha isoform (PIK3CA, Homo sapiens, UniProt P42336, E542K)

Cc1cccc(O[C@H]2CCC[C@@H](C(C)CNCc3ccncc3)C2)c1 (relative stereo) has an inhibition of 2% (PIK3CA; enzyme activity, inhibitor; 1 µM).
CC(=O)c1cnc(N)nc1N1CC[C@H]1c1nn2ccc(Cl)c2c(=O)n1-c1ccccc1 gave a remaining binding of 73% (PIK3CA Q546K; binding, competition with immobilised ligand; 10 µM).
For CNC(=O)C1CCN(c2cc(C)c(F)cc2NC(=O)c2ccc(-c3cc(O)ccc3C)c(C)c2)CC1, the remaining binding was 65% (PIK3CA (Homo sapiens, UniProt P42336, H1047Y); binding, competition with immobilised ligand; 1 µM).
CC(C)=CC1OC(C)(C)C2C=C3C(=O)C(Cl)=CC(O)C3C3C(O)C4OC4C(=O)C132 (centres unmarked) gave a remaining binding of 64% (PIK3CA Q546K; cell-free assay, competition with immobilised ligand; 10 µM).
With CCN1CCN(Cc2ccc(C(=O)Nc3ccc(C)c(NCc4cnc5[nH]ccc5c4OC)c3)cc2C(F)(F)F)CC1 the remaining binding was 100% (PIK3CA; binding, competition with immobilised ligand; 1 µM).
With CNC1C[S+]2CC[S+]3CC[S+](C1)[Ru-4]321([N]=C=S)[n]2c3ccc(OC)cc3c3c4c(c5cc(F)c[n+]1c5c32)C(=O)NC4=O (centres unmarked) the remaining binding was 82% (PIK3CA (Homo sapiens, UniProt P42336, E545A); KinomeScan; 0.1 µM; relative to: untreated).
With C=CC(=O)Nc1cc(-c2nn(C3CCN(CCNC(=O)[C@H](C)CCC45CC6CC(CC(C6)C4)C5)CC3)c3ncnc(N)c23)ccc1Oc1ccccc1 the inhibition was -41.8% (PIK3CA; inhibitor, KiNativ profiling; biochemical; 2 µM).
C=CC(=O)N1CCc2ccc(-n3c(=O)ccc4cnc5ccc(-c6cnn(C)c6)cc5c43)cc21 gave a remaining binding of 66% (PIK3CA E542K; KINOMEscan; 1 µM; relative to: DMSO control).
The remaining binding of Nc1ncc2c(n1)-c1c([nH]c3ccc(C4=CCOCC4)cc13)CCC2 is reported as 89% (PIK3CA (Homo sapiens, UniProt P42336, E545K); binding, competition with immobilised ligand; 1 µM).
For Cc1nc2c(F)cc(-c3nc(Nc4ccc(CNC(=O)CCCCCCC(=O)NO)cc4)ncc3F)cc2n1C(C)C, the inhibition was 14% (Phosphatidylinositol 4,5-bisphosphate 3-kinase catalytic subunit alpha isoform, with p85 (PIK3CA, Homo sapiens, UniProt P42336, E542K); enzyme activity, inhibitor; 1 µM).
With O=c1c(-c2ccc(Cl)c(CN3CCOCC3)c2)coc2cc(O)ccc12 the remaining activity was 102% (Phosphatidylinositol 4,5-bisphosphate 3-kinase catalytic subunit alpha isoform, with p85 (PIK3CA, Homo sapiens, UniProt P42336, E545K); enzyme activity, inhibitor; 1 µM).
The inhibition of C=CC(=O)Nc1cccc(-c2cnc3[nH]cc(C(=O)NC(C)(C)C)c3n2)c1 is reported as 27% (PIK3CA; enzyme activity, inhibitor; 0.1 µM).
For C=CC(=O)N1CCCC(n2c(=O)c3ncccc3n(Cc3ccc(Oc4ccccc4)cc3)c2=O)C1 (centres unmarked), the remaining binding was 100% (PIK3CA (Homo sapiens, UniProt P42336, M1043I); cell-free assay, competition with immobilised ligand; 1 µM).
Cc1ccc(-c2c(/C=C(\C#N)C(=O)NC(C)C)n(CCCO)c3ncnc(N)c23)cc1 gave a remaining binding of 77% (PIK3CA (Homo sapiens, UniProt P42336, I800L); cell-free assay, competition with immobilised ligand; 1 µM).
With Cc1cnc2nc1Nc1cccc(c1)COC/C=C/COCc1cc(ccc1OCCN1CCOCC1)N2 the remaining binding was 68% (PIK3CA (Homo sapiens, UniProt P42336, H1047L); binding; 0.1 µM).
With C=C1CCCCCCCCCC(CO)C1=O (centres unmarked) the remaining signal was 76% (PIK3CA; cell-free assay; 10 µM).
The remaining binding of COc1c(Cl)cccc1Nc1c(-c2ccncc2C#C[C@@]2(C)CCCN2C(=O)/C=C/CN(C)C)[nH]c2c1C(=O)NCC2 is reported as 85% (PIK3CA E542K; binding, competition with immobilised ligand; 3 µM).
